Measured values collected from several papers.
Numbered parts are unrelated; each lists some results of a single study. “And” joins repeats or separate records; there may be more than shown.
Sequence of UniProt Q8NE63 (whole entry, looked up): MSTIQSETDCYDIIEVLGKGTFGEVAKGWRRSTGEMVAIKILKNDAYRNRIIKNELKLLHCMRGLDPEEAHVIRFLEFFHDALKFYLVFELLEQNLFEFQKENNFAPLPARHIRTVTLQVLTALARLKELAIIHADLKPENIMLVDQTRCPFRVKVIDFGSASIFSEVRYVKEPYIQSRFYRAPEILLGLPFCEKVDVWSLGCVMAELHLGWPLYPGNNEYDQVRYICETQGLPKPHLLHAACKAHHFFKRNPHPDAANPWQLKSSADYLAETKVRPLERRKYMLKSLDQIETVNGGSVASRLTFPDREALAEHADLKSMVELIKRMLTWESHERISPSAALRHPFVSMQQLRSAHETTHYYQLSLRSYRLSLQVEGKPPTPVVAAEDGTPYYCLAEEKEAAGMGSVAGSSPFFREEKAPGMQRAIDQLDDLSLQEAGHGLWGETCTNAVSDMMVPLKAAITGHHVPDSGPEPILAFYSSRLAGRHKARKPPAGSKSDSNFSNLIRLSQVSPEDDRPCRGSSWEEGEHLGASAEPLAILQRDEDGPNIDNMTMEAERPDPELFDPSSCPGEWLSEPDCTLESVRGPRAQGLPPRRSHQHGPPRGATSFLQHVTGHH
Sequence of UniProt Q9UK32 (whole entry, looked up): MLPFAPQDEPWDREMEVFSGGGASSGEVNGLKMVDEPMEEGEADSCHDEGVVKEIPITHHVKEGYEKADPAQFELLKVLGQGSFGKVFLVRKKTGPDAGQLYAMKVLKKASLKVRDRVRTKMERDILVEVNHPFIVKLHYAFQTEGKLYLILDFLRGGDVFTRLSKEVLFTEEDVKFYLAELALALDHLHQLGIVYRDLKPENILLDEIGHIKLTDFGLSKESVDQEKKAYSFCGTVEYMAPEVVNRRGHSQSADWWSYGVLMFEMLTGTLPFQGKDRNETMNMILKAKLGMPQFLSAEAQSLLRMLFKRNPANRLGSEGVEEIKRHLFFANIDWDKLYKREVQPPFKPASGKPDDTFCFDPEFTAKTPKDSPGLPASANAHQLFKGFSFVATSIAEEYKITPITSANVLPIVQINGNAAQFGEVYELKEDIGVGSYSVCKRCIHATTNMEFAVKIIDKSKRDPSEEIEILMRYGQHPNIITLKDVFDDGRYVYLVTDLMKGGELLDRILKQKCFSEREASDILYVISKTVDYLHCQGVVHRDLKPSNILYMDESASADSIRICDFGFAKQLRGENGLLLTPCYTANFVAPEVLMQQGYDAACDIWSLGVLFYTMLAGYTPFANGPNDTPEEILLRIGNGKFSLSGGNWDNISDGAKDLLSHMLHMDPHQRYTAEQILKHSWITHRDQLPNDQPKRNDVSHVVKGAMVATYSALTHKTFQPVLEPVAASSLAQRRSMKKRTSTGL
Sequence of UniProt Q8TF76 (whole entry, looked up): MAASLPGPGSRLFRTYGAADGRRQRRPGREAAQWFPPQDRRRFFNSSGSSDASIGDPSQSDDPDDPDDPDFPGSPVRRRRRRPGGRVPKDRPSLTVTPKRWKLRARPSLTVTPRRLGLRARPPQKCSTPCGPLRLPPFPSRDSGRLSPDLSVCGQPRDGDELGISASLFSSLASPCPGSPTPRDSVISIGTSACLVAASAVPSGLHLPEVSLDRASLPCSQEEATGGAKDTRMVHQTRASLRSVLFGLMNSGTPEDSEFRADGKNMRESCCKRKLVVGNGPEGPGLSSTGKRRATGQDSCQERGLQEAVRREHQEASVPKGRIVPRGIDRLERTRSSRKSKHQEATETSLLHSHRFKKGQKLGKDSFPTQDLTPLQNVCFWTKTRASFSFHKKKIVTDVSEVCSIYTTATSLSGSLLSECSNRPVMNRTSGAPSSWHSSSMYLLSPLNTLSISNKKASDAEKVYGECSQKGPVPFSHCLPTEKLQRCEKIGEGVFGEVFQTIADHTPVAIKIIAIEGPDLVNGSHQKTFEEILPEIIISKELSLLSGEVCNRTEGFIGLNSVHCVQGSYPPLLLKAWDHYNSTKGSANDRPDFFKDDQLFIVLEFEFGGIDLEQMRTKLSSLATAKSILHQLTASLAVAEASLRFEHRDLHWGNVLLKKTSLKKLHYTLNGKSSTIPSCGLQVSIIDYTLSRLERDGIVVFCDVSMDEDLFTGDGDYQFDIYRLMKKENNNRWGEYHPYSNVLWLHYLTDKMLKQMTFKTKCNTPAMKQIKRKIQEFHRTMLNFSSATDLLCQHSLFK
Sequence of UniProt P49336 (whole entry, looked up): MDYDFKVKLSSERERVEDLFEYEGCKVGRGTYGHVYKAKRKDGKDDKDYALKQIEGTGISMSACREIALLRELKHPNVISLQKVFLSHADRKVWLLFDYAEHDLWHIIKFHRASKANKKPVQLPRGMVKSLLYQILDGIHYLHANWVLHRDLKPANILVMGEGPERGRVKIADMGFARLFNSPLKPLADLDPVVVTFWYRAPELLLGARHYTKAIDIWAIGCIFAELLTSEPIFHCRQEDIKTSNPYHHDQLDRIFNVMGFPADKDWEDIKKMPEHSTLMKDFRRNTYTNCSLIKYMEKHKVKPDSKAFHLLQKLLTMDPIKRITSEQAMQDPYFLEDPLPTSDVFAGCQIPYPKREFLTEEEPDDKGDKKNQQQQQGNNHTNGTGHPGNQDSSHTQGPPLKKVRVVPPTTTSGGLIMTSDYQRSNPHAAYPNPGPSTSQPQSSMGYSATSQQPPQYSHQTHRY
Sequence of UniProt Q9UQB9 (whole entry, looked up): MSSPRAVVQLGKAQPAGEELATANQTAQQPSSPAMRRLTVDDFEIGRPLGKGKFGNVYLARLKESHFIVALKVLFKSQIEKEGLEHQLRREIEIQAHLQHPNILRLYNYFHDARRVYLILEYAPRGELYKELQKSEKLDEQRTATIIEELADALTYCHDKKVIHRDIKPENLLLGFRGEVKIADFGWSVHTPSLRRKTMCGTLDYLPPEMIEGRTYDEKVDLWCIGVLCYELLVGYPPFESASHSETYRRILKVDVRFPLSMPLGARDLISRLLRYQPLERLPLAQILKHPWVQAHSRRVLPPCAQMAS
Sequence of UniProt P32298 (whole entry, looked up): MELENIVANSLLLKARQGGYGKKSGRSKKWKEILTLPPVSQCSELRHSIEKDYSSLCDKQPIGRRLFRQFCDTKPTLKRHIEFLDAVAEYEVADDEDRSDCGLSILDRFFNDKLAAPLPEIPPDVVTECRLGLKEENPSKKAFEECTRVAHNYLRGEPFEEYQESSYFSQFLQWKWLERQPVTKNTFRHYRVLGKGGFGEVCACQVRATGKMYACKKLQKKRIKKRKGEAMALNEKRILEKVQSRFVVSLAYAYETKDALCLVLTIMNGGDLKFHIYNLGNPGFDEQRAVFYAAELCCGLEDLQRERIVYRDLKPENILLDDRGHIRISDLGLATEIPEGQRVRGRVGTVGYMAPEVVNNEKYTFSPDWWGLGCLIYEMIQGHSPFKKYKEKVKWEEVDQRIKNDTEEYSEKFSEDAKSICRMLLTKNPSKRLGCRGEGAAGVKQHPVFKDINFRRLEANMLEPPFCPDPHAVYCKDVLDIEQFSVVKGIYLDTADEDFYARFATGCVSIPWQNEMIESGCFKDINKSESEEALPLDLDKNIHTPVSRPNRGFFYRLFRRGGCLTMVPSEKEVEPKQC
Sequence of UniProt Q13705 (whole entry, looked up): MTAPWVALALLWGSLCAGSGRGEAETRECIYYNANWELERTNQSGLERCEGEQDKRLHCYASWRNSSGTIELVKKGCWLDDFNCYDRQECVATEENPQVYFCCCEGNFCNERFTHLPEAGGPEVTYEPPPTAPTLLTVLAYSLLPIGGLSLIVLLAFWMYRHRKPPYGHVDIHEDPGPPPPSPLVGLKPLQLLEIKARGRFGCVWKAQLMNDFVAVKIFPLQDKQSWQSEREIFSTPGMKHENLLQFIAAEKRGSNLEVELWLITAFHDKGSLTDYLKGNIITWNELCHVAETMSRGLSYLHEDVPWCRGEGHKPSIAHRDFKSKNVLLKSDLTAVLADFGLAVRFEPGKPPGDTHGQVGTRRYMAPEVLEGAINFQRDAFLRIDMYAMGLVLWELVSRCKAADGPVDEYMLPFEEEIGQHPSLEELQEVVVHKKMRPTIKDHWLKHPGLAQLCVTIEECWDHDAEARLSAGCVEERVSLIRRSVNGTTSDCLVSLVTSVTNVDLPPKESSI
Sequence of UniProt Q6XUX3 (whole entry, looked up): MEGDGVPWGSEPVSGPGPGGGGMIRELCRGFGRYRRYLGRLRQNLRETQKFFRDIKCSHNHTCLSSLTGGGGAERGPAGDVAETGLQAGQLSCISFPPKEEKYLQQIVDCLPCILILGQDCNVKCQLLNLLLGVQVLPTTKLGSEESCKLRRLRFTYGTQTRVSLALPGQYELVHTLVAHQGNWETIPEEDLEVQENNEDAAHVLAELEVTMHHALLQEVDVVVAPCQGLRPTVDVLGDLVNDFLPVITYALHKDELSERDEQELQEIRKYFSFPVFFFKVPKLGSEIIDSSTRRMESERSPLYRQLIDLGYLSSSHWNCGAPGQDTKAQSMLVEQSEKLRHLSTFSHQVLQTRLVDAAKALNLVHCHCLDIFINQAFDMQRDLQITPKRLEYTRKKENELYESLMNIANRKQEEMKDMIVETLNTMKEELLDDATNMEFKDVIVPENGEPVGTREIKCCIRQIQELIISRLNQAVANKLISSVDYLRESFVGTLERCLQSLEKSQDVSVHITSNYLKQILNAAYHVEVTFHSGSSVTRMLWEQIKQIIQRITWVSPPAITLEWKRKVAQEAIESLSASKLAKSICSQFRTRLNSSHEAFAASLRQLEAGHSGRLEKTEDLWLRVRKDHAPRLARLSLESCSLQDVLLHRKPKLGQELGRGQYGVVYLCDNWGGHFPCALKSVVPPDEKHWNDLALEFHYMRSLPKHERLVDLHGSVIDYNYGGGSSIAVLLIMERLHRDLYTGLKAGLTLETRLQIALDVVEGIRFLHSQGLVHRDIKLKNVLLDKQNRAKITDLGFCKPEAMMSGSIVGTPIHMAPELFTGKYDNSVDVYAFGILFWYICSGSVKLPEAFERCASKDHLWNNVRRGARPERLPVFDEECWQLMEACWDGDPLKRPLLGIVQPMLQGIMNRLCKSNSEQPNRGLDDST

Study 1
Cell line: mouse MPNST tumor cells
Method: high-content nuclear imaging
Refers to: cell number
Concentration: 10 µM
Time: 12 h
Notes: mean of 2 replicates
Relative to: plate mean
Reading: higher = more cells
SMILES	nuclei count
Cc1ccc(-c2ncc(Cl)cc2-c2ccc(S(C)(=O)=O)cc2)cn1	1.22 z-score
N=C(N)SCc1ccc(B(O)O)cc1	-1.34 z-score
CCN(CC)CCOCCOC(=O)C1(c2ccccc2)CCCC1	0.645 z-score
Cc1nc(Nc2ccc(F)cc2)sc1C(=O)c1ccsc1	2.83 z-score
N[C@@H](CCNCc1ccc(Cl)cc1)C(=O)N1CCCCC1	1.61 z-score

Study 2
Organism: Sarcocystis neurona
Effect on: parasite activity
Concentration: 10 µM
Time: 96 h
Compound	activity class
COc1ccc(OC)c(C(O)CNC(=O)CN)c1 (centres unmarked)	inactive
CC1(C)S[C@@H]2[C@H](NC(=O)COc3ccccc3)C(=O)N2[C@H]1C(=O)O	inactive
O=C(O)c1cc(=O)c2c(OCC(O)COc3cccc4oc(C(=O)O)cc(=O)c34)cccc2o1	inactive
COC(=O)Nc1nc2cc(C(=O)c3ccc(F)cc3)ccc2[nH]1	inactive

Study 3
Structure (SMILES): CC(C)(C)c1cnc(CSc2cnc(NC(=O)C3CCN(CCCCCSc4cccc5c4CN(C4CCC(=O)NC4=O)C5=O)CC3)s2)o1 (centres unmarked)
cell line	method	concentration	time	relative to	viability
HuT78	–	250 nM	24 h	–	3.16% and 6.58% and 5.64%
HuT78	trypan blue exclusion	500 nM	48 h	untreated control	8.27% and 13.8%
HH	CCK-8	50 nM	–	–	85.1% and 88.1%
HH	CCK-8	500 nM	–	–	0%

Study 4
Structure (SMILES): CNCc1ccccc1-c1csc([C@H](C)Nc2nc(C)nc3cc(OC)c(OC)cc23)c1
Effect on: cell-free assay
Method: competition with immobilised ligand
Concentration: 1 µM
target	remaining binding [%]
Cyclin-dependent kinase 8 (CDK8, Homo sapiens, UniProt P49336)	84
Homeodomain-interacting protein kinase 4 (HIPK4, Homo sapiens, UniProt Q8NE63)	91
Aurora kinase C (AURKC, Homo sapiens, UniProt Q9UQB9)	94
Ribosomal protein S6 kinase alpha-6, C-terminal kinase domain (RPS6KA6, Homo sapiens, UniProt Q9UK32)	100
Serine/threonine-protein kinase haspin (HASPIN, Homo sapiens, UniProt Q8TF76)	100
Receptor-type tyrosine-protein kinase FLT3 (FLT3, Homo sapiens, UniProt P36888, D835V/ITD)	81
Activin receptor type-2B (ACVR2B, Homo sapiens, UniProt Q13705)	100
Tyrosine-protein kinase ABL1, non-phosphorylated (ABL1, Homo sapiens, UniProt P00519, H396P)	89
BMP-2-inducible protein kinase (BMP2K, Homo sapiens, UniProt Q9NSY1)	79
Serine/threonine-protein kinase Nek10 (NEK10, Homo sapiens, UniProt Q6ZWH5)	78
G protein-coupled receptor kinase 4 (GRK4, Homo sapiens, UniProt P32298)	97
Dual serine/threonine and tyrosine protein kinase (DSTYK, Homo sapiens, UniProt Q6XUX3)	78
Non-receptor tyrosine-protein kinase TYK2, JH2 (TYK2, Homo sapiens, UniProt P29597)	76

Study 5
Host: mouse
Sample: microsomes or S9
Concentration: 2 µM
Time: 0.5 h
SMILES	remaining compound [%]
Cn1c(=O)n(-c2ccccn2)c(=O)c2c3c(sc21)COC(C)(C)C3	91.3
Cc1cc2c(cc1C(=O)N=C(N)N)C(Br)=CC(C)(C)O2	38.5
COc1ccc2c(n1)c1c(n2-c2ccc(N(C)C)cc2)CCC1	0.668

For quick reference, copied from above (study 2):
Compound	activity class
COc1ccc(OC)c(C(O)CNC(=O)CN)c1 (centres unmarked)	inactive
COC(=O)Nc1nc2cc(C(=O)c3ccc(F)cc3)ccc2[nH]1	inactive
